Measured values from different studies.
Protocols differ between the studies behind these lines. Numbers after ± are the reported error.
Magi2: Membrane-associated guanylate kinase, WW and PDZ domain-containing protein 2 (Magi2, Mus musculus, UniProt Q9WVQ1)
Chain of UniProt Q9WVQ1 (whole entry, looked up): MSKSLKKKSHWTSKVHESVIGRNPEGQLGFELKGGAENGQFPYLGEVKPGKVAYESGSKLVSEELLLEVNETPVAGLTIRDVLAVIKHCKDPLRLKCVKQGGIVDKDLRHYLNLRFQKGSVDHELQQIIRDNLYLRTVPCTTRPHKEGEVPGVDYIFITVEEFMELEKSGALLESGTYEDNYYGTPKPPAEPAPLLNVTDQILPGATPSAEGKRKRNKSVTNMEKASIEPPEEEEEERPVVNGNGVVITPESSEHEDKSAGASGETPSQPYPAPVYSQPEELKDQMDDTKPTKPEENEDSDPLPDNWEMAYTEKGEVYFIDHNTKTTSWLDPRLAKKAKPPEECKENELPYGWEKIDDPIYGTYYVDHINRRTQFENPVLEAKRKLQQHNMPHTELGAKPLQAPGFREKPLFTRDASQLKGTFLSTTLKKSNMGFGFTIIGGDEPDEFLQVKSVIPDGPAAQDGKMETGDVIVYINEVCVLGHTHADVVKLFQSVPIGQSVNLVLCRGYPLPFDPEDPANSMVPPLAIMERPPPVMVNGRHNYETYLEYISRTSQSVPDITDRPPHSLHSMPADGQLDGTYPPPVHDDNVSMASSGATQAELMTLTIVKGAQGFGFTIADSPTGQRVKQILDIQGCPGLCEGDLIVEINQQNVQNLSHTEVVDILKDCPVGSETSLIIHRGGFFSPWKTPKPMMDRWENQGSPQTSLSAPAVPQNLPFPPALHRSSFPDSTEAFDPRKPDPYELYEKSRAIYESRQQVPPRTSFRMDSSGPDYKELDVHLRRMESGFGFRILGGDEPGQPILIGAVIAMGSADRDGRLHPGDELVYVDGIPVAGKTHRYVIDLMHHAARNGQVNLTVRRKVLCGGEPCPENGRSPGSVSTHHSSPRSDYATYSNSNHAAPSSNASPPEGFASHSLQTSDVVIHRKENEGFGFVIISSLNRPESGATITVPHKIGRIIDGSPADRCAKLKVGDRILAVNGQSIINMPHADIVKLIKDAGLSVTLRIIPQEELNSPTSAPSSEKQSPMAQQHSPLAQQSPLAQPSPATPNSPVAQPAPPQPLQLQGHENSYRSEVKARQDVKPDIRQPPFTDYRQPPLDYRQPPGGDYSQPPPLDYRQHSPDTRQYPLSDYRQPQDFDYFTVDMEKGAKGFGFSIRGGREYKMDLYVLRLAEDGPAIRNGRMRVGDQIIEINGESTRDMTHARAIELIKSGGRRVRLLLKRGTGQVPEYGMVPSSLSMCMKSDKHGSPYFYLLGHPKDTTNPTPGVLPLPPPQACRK
14-3-3 protein epsilon: 14-3-3 protein epsilon (Homo sapiens, UniProt P62258)
Chain of UniProt P62258 (whole entry, looked up): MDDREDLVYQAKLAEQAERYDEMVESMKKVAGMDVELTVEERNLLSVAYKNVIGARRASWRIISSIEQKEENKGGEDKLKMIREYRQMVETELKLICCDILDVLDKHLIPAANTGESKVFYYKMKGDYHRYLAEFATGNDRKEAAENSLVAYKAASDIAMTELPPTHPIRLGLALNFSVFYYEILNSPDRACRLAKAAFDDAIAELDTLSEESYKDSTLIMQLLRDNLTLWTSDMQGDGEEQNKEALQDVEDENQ
Chymotrypsin-C: Chymotrypsin-C (Homo sapiens, UniProt Q99895)
Chain of UniProt Q99895 (whole entry, looked up): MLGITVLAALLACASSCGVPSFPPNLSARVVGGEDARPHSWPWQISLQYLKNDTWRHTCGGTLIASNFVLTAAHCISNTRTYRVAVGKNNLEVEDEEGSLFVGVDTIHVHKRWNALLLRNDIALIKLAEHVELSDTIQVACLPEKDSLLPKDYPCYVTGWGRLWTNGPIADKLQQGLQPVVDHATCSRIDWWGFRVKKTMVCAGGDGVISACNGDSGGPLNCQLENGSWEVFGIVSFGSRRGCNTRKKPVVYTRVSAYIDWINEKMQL
Chain of UniProt P09619 (whole entry, looked up): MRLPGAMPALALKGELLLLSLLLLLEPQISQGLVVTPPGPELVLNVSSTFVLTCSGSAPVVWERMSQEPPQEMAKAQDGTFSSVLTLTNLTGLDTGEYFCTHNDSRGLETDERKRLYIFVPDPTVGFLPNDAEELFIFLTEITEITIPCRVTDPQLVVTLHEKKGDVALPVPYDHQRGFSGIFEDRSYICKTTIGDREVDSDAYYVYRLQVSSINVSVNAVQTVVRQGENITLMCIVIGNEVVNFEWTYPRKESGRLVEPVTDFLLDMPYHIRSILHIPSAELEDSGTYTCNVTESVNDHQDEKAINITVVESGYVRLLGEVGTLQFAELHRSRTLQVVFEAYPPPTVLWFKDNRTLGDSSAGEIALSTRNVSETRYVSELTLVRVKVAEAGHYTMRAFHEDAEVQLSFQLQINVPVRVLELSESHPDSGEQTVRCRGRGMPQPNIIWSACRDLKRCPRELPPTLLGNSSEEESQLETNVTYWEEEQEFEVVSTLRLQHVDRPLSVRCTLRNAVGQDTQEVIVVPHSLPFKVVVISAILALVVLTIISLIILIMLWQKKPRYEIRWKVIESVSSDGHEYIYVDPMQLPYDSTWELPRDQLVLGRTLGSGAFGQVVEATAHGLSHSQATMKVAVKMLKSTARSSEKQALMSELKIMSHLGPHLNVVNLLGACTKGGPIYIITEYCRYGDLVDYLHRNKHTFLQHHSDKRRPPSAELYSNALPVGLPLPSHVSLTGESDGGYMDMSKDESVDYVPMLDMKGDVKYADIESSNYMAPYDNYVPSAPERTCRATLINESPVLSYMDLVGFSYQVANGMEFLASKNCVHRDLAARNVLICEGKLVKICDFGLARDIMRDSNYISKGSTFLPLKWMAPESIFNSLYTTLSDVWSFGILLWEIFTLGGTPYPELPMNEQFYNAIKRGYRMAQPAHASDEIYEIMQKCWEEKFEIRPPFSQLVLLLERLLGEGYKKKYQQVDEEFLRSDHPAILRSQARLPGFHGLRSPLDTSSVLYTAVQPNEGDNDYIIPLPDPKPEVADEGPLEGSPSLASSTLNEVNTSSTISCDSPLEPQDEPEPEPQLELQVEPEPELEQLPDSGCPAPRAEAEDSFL
Chain of UniProt Q07820 (whole entry, looked up): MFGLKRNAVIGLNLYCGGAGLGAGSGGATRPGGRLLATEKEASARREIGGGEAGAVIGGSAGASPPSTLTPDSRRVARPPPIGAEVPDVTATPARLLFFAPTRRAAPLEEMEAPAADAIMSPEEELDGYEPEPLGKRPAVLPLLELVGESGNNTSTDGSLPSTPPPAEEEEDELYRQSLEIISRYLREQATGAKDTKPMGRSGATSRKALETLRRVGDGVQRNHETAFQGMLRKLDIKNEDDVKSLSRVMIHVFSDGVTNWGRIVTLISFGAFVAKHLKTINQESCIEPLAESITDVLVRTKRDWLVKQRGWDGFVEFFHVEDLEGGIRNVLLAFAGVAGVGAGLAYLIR
Chain of UniProt Q8TF76 (whole entry, looked up): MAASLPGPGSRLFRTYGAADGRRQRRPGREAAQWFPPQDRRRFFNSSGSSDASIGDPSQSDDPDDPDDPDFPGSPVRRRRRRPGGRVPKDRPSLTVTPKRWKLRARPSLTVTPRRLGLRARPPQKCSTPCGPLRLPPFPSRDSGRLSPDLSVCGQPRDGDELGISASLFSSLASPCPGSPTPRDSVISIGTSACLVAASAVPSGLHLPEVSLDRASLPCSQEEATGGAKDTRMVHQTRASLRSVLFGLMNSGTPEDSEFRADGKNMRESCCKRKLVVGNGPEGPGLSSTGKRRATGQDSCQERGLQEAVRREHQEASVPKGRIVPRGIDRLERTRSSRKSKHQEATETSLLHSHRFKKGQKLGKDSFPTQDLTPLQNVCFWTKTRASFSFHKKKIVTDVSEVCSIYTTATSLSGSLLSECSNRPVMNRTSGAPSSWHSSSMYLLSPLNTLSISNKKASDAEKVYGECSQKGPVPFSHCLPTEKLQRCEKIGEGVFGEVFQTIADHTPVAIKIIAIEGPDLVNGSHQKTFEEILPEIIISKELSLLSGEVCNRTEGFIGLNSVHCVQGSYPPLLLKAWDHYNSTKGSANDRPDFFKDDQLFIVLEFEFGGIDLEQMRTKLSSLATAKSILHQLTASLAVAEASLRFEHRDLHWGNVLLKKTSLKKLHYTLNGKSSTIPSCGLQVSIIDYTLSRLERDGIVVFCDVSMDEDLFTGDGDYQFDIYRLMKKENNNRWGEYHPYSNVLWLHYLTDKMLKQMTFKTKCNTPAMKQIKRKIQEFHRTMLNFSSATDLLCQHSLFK
Chain of UniProt Q04917 (whole entry, looked up): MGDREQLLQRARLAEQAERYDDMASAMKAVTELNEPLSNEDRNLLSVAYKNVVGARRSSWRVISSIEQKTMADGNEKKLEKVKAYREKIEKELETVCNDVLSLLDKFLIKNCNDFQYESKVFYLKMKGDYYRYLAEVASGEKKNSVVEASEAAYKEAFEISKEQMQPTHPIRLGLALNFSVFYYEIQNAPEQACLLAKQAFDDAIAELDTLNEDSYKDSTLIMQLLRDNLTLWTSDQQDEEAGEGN
Chain of UniProt P33913 (whole entry, unmodified, looked up): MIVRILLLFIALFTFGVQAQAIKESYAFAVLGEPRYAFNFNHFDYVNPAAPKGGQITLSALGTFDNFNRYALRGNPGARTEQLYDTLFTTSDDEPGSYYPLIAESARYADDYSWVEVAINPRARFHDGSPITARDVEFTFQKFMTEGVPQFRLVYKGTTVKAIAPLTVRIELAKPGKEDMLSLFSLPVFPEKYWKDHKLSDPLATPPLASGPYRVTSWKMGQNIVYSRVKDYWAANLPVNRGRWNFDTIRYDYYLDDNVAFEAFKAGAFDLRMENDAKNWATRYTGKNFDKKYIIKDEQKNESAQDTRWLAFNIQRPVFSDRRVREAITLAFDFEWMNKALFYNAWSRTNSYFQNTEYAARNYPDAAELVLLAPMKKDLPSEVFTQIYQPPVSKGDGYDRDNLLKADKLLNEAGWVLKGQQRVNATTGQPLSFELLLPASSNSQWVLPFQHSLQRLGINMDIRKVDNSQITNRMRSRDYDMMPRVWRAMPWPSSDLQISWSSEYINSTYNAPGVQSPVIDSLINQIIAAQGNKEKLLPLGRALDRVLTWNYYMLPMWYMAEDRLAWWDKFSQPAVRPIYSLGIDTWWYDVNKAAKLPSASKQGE

CC[C@H](C)[C@H](NC(=O)[C@H](CO)NC(=S)Nc1ccc2c(c1)C(=O)OC21c2ccc(O)cc2Oc2cc(O)ccc21)C(=O)N[C@@H](CCC(=O)O)C(=O)N[C@@H](CCCCN)C(=O)NCC(=O)NCC(=O)N[C@@H](CCP(=O)(O)O)C(=O)N[C@@H](CC(C)C)C(=O)N1CCC[C@H]1C(=O)N[C@@H](CCCCN)C(=O)N[C@H](C(=O)N[C@@H](Cc1c[nH]c2ccccc12)C(=O)N[C@@H](CC(C)C)C(=O)N[C@H](C(=O)N1CCC[C@H]1C(=O)N[C@@H](CCCNC(=N)N)C(=O)O)C(C)C)C(C)C has a Kd of 46.6 µM (14-3-3 protein eta (Homo sapiens, UniProt Q04917); binding, fluorescence anisotropy; pH 7.5, FITC-labelled phosphopeptide titration).
For CC[C@H](C)[C@H](NC(=O)[C@@H](NC(=O)[C@@H]1CCCN1C(=O)[C@@H](NC(=O)[C@@H]1CCCN1C(=O)[C@H](CCCCN)NC(=O)[C@H](CCCCN)NC(=O)[C@H](CO)NC(=O)CNC(=O)CCOCCOCCOCCOCc1cn(CCCNC(=O)CCC2=[N+]3C(=Cc4c(C)cc(C)n4[B-]3(F)F)C=C2)nn1)C(C)C)[C@@H](C)CC)C(=O)N[C@@H](Cc1ccc(O)cc1)C(=O)N[C@H]1CSSC[C@@H](C(=O)N[C@@H](CCC(N)=O)C(=O)N[C@@H](CCCNC(=N)N)C(=O)N[C@@H](CCSC)C(=O)O)NC(=O)[C@H](CCCCN)NC(=O)CNC(=O)[C@H]([C@@H](C)O)NC(=O)[C@H](CCCNC(=N)N)NC(=O)[C@H](CCCNC(=N)N)NC(=O)[C@H](CC(N)=O)NC1=O, the Kd was 0.0038 ± 0.001 µM (lptA (Escherichia coli, UniProt P0ADV1); binding, fluorescence polarization; with: lptA titrated).
For CC(C)C[C@H](NC(=O)[C@H](CO)NC(=O)[C@@H]1CCCN1C(=O)[C@H](CCC(N)=O)NC(=O)[C@@H](NC(=O)[C@H](C)NC(=O)[C@H](CCCCN)NC(=O)[C@H](CC(C)C)NC(=O)[C@H](Cc1ccc(O)cc1)NC(=O)[C@H](COP(=O)(O)O)NC(=O)[C@H](CCC(=O)O)NC(=O)[C@@H](NC(=O)[C@H](CCCNC(=N)N)NC(=O)[C@H](C)NC(=O)[C@H](C)N)C(C)C)[C@@H](C)O)C(=O)O, the Kd was 6 ± 0.6 µM (Magi2; ITC; pH 8.0, 25 °C, with: tandem peptide).
CC(=O)N[C@@H](CCCNC(=N)N)C(=O)N[C@H](C(=O)N[C@@H](CCCCN)C(=O)N[C@@H](CO)C(=O)N[C@@H](CCCNC(=N)N)C(=O)N[C@H](C(=O)N[C@@H](Cc1c[nH]c2ccccc12)C(=O)N[C@@H](C)C(=O)N[C@H](C(N)=O)C(C)C)[C@@H](C)OP(=O)(O)O)[C@@H](C)O has a Kd of 0.23 µM (14-3-3 protein epsilon; binding, SPR).
The Kd of CC[C@H](C)[C@H](NC(=O)[C@H](C)NC(=O)[C@H](CCCNC(=N)N)NC(=O)[C@H](CCCNC(=N)N)NC(=O)[C@H](Cc1ccc(O)cc1)NC(=O)[C@H](CCC(=O)O)NC(=O)[C@H](CCC(=O)O)NC(=O)[C@H](CCCNC(=N)N)NC(=O)[C@H](CCCNC(=N)N)NC(=O)[C@@H](N)CCCNC(=N)N)C(=O)N[C@@H](CC(N)=O)C(=O)NCC(=O)N[C@@H](CCC(N)=O)C(=O)N[C@@H](CO)C(=O)N[C@@H](CCCNC(=N)N)C(=O)O is reported as 4.3 ± 1 µM (Magi2; ITC; pH 8.0, 25 °C, with: tandem peptide).
With O=C(N[C@@H]1c2ccccc2C[C@H]1N1CCCC1)c1ccc(-c2ccnc3[nH]ccc23)nc1 the Kd was 0.021 µM (HASPIN (Homo sapiens, UniProt Q8TF76); binding, competition with immobilised ligand).
CC(=O)N[C@@H](CCCNC(=N)N)C(=O)N[C@H](C(=O)N[C@@H](CCCCN)C(=O)N[C@@H](CO)C(=O)N[C@@H](CCCNC(=N)N)C(=O)N[C@H](C(=O)N[C@@H](Cc1c[nH]c2ccccc12)C(=O)N[C@@H](C)C(=O)N[C@@H](Cc1ccccc1)C(N)=O)[C@@H](C)OP(=O)(O)O)[C@@H](C)O gave a Kd of 0.0208 µM (14-3-3 protein epsilon; binding, SPR).
The Kd of CSCC[C@@H]1NC(=O)[C@H](CCSC)NC(=O)[C@H]([C@@H](C)O)NC(=O)[C@@H]2CSSC[C@@H]3NC(=O)[C@H]([C@@H](C)O)NC(=O)[C@H](CC(N)=O)NC(=O)[C@H](CSSC[C@@H](C(=O)N[C@@H](CC(=O)O)C(=O)N[C@@H](CCC(N)=O)C(=O)O)NC(=O)[C@H](CC(C)C)NC1=O)NC(=O)[C@H](CCCCN)NC(=O)[C@H](CC(=O)O)NC(=O)[C@H](CCCCN)NC(=O)[C@H](Cc1ccccc1)NC(=O)[C@H]([C@@H](C)O)NC(=O)[C@H]([C@@H](C)O)NC(=O)CNC(=O)[C@@H]1CCCN1C(=O)[C@H](CCC(=O)O)NC(=O)[C@@H](NC(=O)[C@@H](NC(=O)[C@@H](NC(=O)[C@H](CCC(=O)O)NC(=O)[C@H](CO)NC(=O)CN)C(C)C)[C@@H](C)O)CSSC[C@H](NC(=O)[C@H](CCCNC(=N)N)NC3=O)C(=O)NCC(=O)N[C@@H](CO)C(=O)N[C@@H](CC(=O)O)C(=O)NCC(=O)N[C@@H](CCCCN)C(=O)N[C@@H](CO)C(=O)N[C@@H](C)C(=O)N[C@@H](Cc1ccc(O)cc1)C(=O)N2 is reported as 0.00169 µM (Chymotrypsin-C; cell-free assay, FP; pH 8).
C=CC[C@H]1OC(=O)CCNC(=O)[C@H](C)N(C)C(=O)[C@H]([C@@H](C)CC)N(C)C(=O)[C@H]([C@@H](C)CC)NC(=O)[C@@H]2[C@@H](C)CCN2C1=O gave a Kd of 8.61 µM (Platelet-derived growth factor receptor beta, extracellular domain (PDGFRB, Homo sapiens, UniProt P09619); SPR; 30 °C, extracellular domain immobilised).
CC[C@H](C)[C@H](NC(=O)[C@H](CCCNC(=N)N)NC(=O)[C@H](CCCNC(=N)N)NC(=O)[C@H](CC(C)C)NC(=O)[C@H](CCC(=O)O)NC(=O)[C@H](CCC(N)=O)NC(=O)[C@H](C)NC(=O)[C@@H](NC(=O)[C@H](CNC(=O)CCl)NC(C)=O)[C@@H](C)CC)C(=O)NCC(=O)N[C@@H](CC(=O)O)C(=O)N[C@@H](CCC(=O)O)C(=O)N[C@@H](Cc1ccccc1)C(=O)N[C@@H](CC(N)=O)C(=O)N[C@@H](C)C(=O)N[C@@H](Cc1ccc(O)cc1)C(=O)N[C@@H](Cc1ccc(O)cc1)C(=O)N[C@@H](C)C(=O)N[C@@H](CCCNC(=N)N)C(=O)N[C@@H](CCCNC(=N)N)C(N)=O gave a Kd of 0.002 µM (MCL1 (Homo sapiens, UniProt Q07820); binding, ITC).
With CSCC[C@@H]1NC(=O)[C@H](CCSC)NC(=O)[C@H]([C@@H](C)O)NC(=O)[C@@H]2CSSC[C@@H]3NC(=O)[C@H]([C@@H](C)O)NC(=O)[C@H](CC(N)=O)NC(=O)[C@H](CSSC[C@@H](C(=O)N[C@@H](CC(=O)O)C(=O)N[C@@H](CCC(N)=O)C(=O)O)NC(=O)[C@H](CC(C)C)NC1=O)NC(=O)[C@H](CCCCN)NC(=O)[C@H](CC(=O)O)NC(=O)[C@H](CCCCN)NC(=O)[C@H](Cc1ccccc1)NC(=O)[C@H]([C@@H](C)O)NC(=O)[C@H]([C@@H](C)O)NC(=O)CNC(=O)[C@@H]1CCCN1C(=O)[C@H](CCC(=O)O)NC(=O)[C@@H](NC(=O)[C@@H](NC(=O)[C@@H](NC(=O)[C@H](CCC(=O)O)NC(=O)[C@H](CO)NC(=O)CN)C(C)C)[C@@H](C)O)CSSC[C@H](NC(=O)[C@H](CCCNC(=N)N)NC3=O)C(=O)NCC(=O)N[C@@H](CO)C(=O)N[C@@H](CC(=O)O)C(=O)NCC(=O)N[C@@H](CCCCN)C(=O)N[C@@H](CO)C(=O)N[C@@H](C)C(=O)N[C@@H](C)C(=O)N2 the Kd was 0.0004 µM (Chymotrypsin-C; cell-free assay, FP; pH 8).
CC(C)C[C@@H]1NC(=O)[C@H](CC(C)C)NC(=O)[C@H](CC(N)=O)NC(=O)[C@@H]2CCCN2C(=O)[C@H](CC(C)C)NC(=O)[C@H](CC(C)C)NC(=O)[C@H](CC(C)C)NC(=O)[C@@H](NC(=O)[C@H](CO)NC(=O)[C@H](CC(N)=O)NC(=O)[C@@H](N)C(C)C)CSSC[C@@H](C(=O)NCC(=O)N[C@@H](CC(=O)O)C(=O)N[C@@H](CC(=O)O)C(=O)N[C@@H](CCCCNC(=O)CCCC[C@@H]2SC[C@@H]3NC(=O)N[C@@H]32)C(=O)NCCCCCC(=O)NCCCCCC(=O)NCCCCCC(=O)NCCCCCC(=O)NCCCCCC(=O)N[C@@H](CCCCNC(=O)CCCCc2cn(CCCC[C@H](NC(=O)N[C@@H](CCC(=O)O)C(=O)O)C(=O)O)nn2)C(=O)NCC(N)=O)NC(=O)CNC1=O has a Kd of 0.15 µM (FOLH1 (Homo sapiens, UniProt Q04609); bead phagocytosis, ternary complex model fit; with: PSMA 80 pM, FcγRI 800 pM).
CC(C)C[C@H](NC(=O)[C@@H]1CCCN1C(=O)[C@H](CCCCN)NC(=O)[C@@H](N)CO)C(=O)N1CCC[C@H]1C(=O)N[C@@H](CCC(=O)O)C(=O)N[C@H](C(=O)N[C@H](C(=O)N[C@@H](CC(=O)O)C(=O)N[C@@H](CCC(=O)O)C(=O)N[C@@H](Cc1ccc(O)cc1)C(=O)NCC(=O)NCCOCCOCCOCCOCCOCCOCCOCCOCCOCCOCCOCCOCCC(=O)N[C@@H](CCCCNC(=O)CC[C@H](C(=O)O)N1CCN(CC(=O)O)CCN(CC(=O)O)CC1)C(=O)N1CCN(CCCN(C)c2ccc3nccc(C(=O)NCC(=O)N4CC(F)(F)C[C@H]4C#N)c3c2)CC1)[C@@H](C)O)C(C)C [copper-64 labelled] has a Kd of 0.00511 µM (FAP (Homo sapiens, UniProt Q12884); binding, 64Cu radioligand saturation; HT-1080 expressing hFAP; 1 h, 37 °C, with: FAPI-04 1 µM for nonspecific).
With CSCC[C@H](NC=O)C(=O)N[C@@H](CCCNC(=N)N)C(=O)N[C@H](C(=O)NCC(=O)N[C@@H](CC(N)=O)C(=O)N[C@@H](C)C(=O)N[C@@H](CC(N)=O)C(=O)NCC(=O)NCC(=O)N[C@@H](CCCCNC(=S)Nc1ccc2c(c1)C(=O)OC21c2ccc(O)cc2Oc2cc(O)ccc21)C(=O)O)[C@@H](C)O the Kd was 31.3 ± 3.33 µM (Uncharacterized protein YejA (yejA, Escherichia coli, UniProt P33913, Y155A); binding, fluorescence polarisation; YejA variant Y137A).
CC(C)C[C@@H]1NC(=O)CNC(=O)[C@@H]2CSSC[C@@H]3NC(=O)[C@H]([C@@H](C)O)NC(=O)[C@H](CC(N)=O)NC(=O)[C@H](CSSC[C@@H](C(=O)N[C@@H](Cc4ccc(O)cc4)C(=O)N[C@@H](CCC(N)=O)C(=O)O)NC(=O)[C@H](CC(C)C)NC(=O)[C@H](C)NC1=O)NC(=O)[C@H](CCCCN)NC(=O)[C@H](CC(=O)O)NC(=O)[C@H](CCCCN)NC(=O)[C@H](Cc1ccccc1)NC(=O)[C@H]([C@@H](C)O)NC(=O)[C@H]([C@@H](C)O)NC(=O)CNC(=O)[C@@H]1CCCN1C(=O)[C@H](CCC(=O)O)NC(=O)[C@@H](NC(=O)[C@@H](NC(=O)[C@@H](NC(=O)[C@H](CCC(=O)O)NC(=O)[C@H](CO)NC(=O)CN)C(C)C)[C@@H](C)O)CSSC[C@H](NC(=O)[C@H](CCCNC(=N)N)NC3=O)C(=O)NCC(=O)N[C@@H](CO)C(=O)N[C@@H](CC(=O)O)C(=O)NCC(=O)N[C@@H](CCCCN)C(=O)N[C@@H](CO)C(=O)N[C@@H](C)C(=O)N[C@@H](Cc1ccc(O)cc1)C(=O)N2 has a Kd of 0.0218 µM (Chymotrypsin-C; cell-free assay, FP; pH 8).

For quick reference, copied from above:
With CSCC[C@@H]1NC(=O)[C@H](CCSC)NC(=O)[C@H]([C@@H](C)O)NC(=O)[C@@H]2CSSC[C@@H]3NC(=O)[C@H]([C@@H](C)O)NC(=O)[C@H](CC(N)=O)NC(=O)[C@H](CSSC[C@@H](C(=O)N[C@@H](CC(=O)O)C(=O)N[C@@H](CCC(N)=O)C(=O)O)NC(=O)[C@H](CC(C)C)NC1=O)NC(=O)[C@H](CCCCN)NC(=O)[C@H](CC(=O)O)NC(=O)[C@H](CCCCN)NC(=O)[C@H](Cc1ccccc1)NC(=O)[C@H]([C@@H](C)O)NC(=O)[C@H]([C@@H](C)O)NC(=O)CNC(=O)[C@@H]1CCCN1C(=O)[C@H](CCC(=O)O)NC(=O)[C@@H](NC(=O)[C@@H](NC(=O)[C@@H](NC(=O)[C@H](CCC(=O)O)NC(=O)[C@H](CO)NC(=O)CN)C(C)C)[C@@H](C)O)CSSC[C@H](NC(=O)[C@H](CCCNC(=N)N)NC3=O)C(=O)NCC(=O)N[C@@H](CO)C(=O)N[C@@H](CC(=O)O)C(=O)NCC(=O)N[C@@H](CCCCN)C(=O)N[C@@H](CO)C(=O)N[C@@H](C)C(=O)N[C@@H](C)C(=O)N2 the Kd was 0.0004 µM (Chymotrypsin-C; cell-free assay, FP; pH 8).
